Experimental data pooled from the literature.
Each numbered part is a random draw from the data of one study; scales do not carry over between parts.

Block 1
Target: Sal-like protein 4, full length isoform B (SALL4, Homo sapiens, UniProt Q9UJQ4-2, residues 1-616)
Technique: universal PBM
Form: double-stranded DNA, one strand shown
Sample: in vitro
Tested at: not given
Setting: 8-mer, flanks averaged, mean of replicates
Direction: higher = stronger binding
Quantity: E-score
CACGCCAG: -0.316
GTGCGAGA: -0.0891
CCGACTGA: -0.172
CATAATCG: 0.201
CACCTTTC: -0.138
AGCCCGCC: -0.374
GATAGACA: 0.0487
CACATGCA: -0.0355
ATACGAGA: 0.195
GTCAGAAC: -0.103
AACGCGGA: -0.178
ACGCCTGG: -0.277
GCCCCCCA: -0.429
AGGGTGTG: -0.111
CAATGCGG: -0.193
CCTTCAAA: 0.149
CCAGTCGG: -0.215
TCTACTCA: 0.0441
ATCATGGG: -0.163

Block 2
Target: Interferon regulatory factor 5, full length, phosphomimetic (IRF5, Homo sapiens, UniProt Q13568-2, residues 1-514, K96S/S451D/S453D/S456D/S462D)
Technique: protein-binding microarray
Form: double-stranded DNA, one strand shown
Sample: in vitro
Tested at: 250 nM
Setting: 60-bp whole probe
Together with: salmon DNA 0.4 mg/ml
Baseline: random background probes
Direction: higher = stronger binding
Quantity: log fluorescence
Constant ends, left off below: GCCTAGCAC … GTCTTGATTCGCTTGACGCTGCTG
GACGGTTTCCTTATCCTGACGTGCTAG: 0.83 z-score
AGACCTTGCTTTATGTGTAGGTGCTAG: -0.108 z-score
ACAGCTCACGCTTTGGAAAGGTGCTAG: -0.275 z-score
TTAGGACTGGACACTGGGTAAGTGCTA: -0.335 z-score
TTAGATTTCAGTTTAGATTAGTGCTAG: 2.73 z-score
TTAGATTTCAGTATCGATTTGTGCTAG: 7.91 z-score
GGACCGCGACCTGCCAAGTCGTGCTAG: -0.588 z-score
GACGGCTTCGGTTTCGGGACGTGCTAG: 3.73 z-score
CTAGGTTTCGGTTTCGGTTAGTGCTAG: 12 z-score
TTAAGACTGGGTCTCGGTTAGTGCTAG: 0.154 z-score
TCCATTTTTACCCTCCTTACGTGCTAG: 0.702 z-score
GACCGTTTCGGGTTTCGGGACGTGCTA: 7.73 z-score
TTAGGTTCCCGTTTCGGTTAGTGCTAG: 7.85 z-score
AACGATTTCGGGTTTCGAGACGTGCTA: 5.14 z-score
GACGCTCTCGGTCTCGGGACGTGCTAG: 0.378 z-score
CCAGGTTGGGAGGGGTAGGGGTGCTAG: 0.654 z-score
GCCGGTTTCCTTCTCCTGACGTGCTAG: 1.14 z-score
TCATATTTATGTATACAACTGTGCTAG: 0.957 z-score

Block 3
Target: RING finger protein unkempt homolog, zinc fingers 1-6, SBP tag (UNK, Homo sapiens, UniProt Q9C0B0, residues 30-357)
Sequence of UniProt Q9C0B0 (30-357, looked up): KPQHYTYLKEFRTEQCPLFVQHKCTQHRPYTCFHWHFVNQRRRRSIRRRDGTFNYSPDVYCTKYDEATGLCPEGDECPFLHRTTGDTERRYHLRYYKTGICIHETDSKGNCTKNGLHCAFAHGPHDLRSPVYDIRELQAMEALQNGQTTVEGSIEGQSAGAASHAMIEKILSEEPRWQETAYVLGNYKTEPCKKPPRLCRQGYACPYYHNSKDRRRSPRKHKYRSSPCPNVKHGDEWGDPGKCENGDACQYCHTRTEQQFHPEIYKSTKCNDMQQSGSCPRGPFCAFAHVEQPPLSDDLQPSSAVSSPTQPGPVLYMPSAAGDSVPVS
Technique: RNA Bind-n-Seq
Form: RNA
Sample: in vitro
Tested at: 100 nM
Setting: RNA with constant flanks, vertebrate orthologous sites, ends assumed
Baseline: input RNA pool
Direction: higher = stronger binding
Quantity: bound/input enrichment
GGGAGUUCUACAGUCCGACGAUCAGAAAAUUUUAACCAAGAACCUGAAGGUAGAAAUACAGGACCAUGGUUAUCUUCCUCACUUAGAAAUAGAUGCACACCUUUGUUUUCUCGAAGGAGACGAGAGGGACGAGAUGAAUCUUCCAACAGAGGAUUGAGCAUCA: 0.965 ratio
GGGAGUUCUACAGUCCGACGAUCGGAGCUUGUGUUUGGCUGCACCUGCAUCCUAAGCUGCUACAACCAGAAUAAAGAGUUUCCGAGCCUGCGUCUCGCUUAGGUGCAUGGGCGUGGGCUUGGCACACAGAGGGCGUGGAGCUGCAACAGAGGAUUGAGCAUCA: 0.196 ratio
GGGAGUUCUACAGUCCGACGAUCUGAGUGUUGGAAGAAUAGCAUAUGAGGUUGUGGUCAAAAAGUAGGAGCAGUUGGGGAGAGAAGAUACACGUAUCAACAGCCAGGUGGUAAAAGGUGCAGAUGAAGGUCAUUGAAACUCAACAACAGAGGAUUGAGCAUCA: 0.495 ratio
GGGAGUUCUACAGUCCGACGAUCUAUUUUUGCACAUGACAGUUUGUUUUGAGGAUCUUCAGAGGAAGGAAGAGAGGGGUGUUGUAAUAGUGGUACCUGGGUUCCUGGCCUCCCAGUGCGCCAUCACCCCACCUGGCACCUUUGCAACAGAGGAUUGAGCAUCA: 0.851 ratio
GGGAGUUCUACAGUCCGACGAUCGAGUGCUUAAGCCGCCAACAGUUAGAAGAUGCUAUUUAUUUGUGUCUGUAAGUUUGUACAUAGUAAUAAUGCCAACCUUGUUGCUGAAUUUUUUAUUUGUGGGGGAUGAGUUUGAAUUUUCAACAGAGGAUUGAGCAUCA: 1.48 ratio
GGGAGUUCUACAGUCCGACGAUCACGCAUUUUGCAACUUGGAUGUGGUCUGCACAGGAAGCUGCUGGCCCCUCCACAACAACACAGAAAAUGUUUGUCUUUUUUUUAAGAUGUUAAGACUGAAUUGAAUUUACUAAAAAUGUACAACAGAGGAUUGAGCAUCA: 0.219 ratio
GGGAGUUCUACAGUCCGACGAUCUUCAGGCACAACUGACUGGUCCACAGCAUUCCUUACAUAGUUAUCUUCCAAAUGCAAGUGUAGUUAAUUUUCAGGAAACAACUAGGCAGCCAUCUUUAUCCUGUAGCCCAAUAGGAGAUUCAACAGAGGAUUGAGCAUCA: 2.09 ratio
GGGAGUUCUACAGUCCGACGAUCCUCUUUUUACCUUUUUACUGCCUCAGUGAGGUAAAGAUUCCUCUUGGACAUUUUUUCCAGUAUUGCAUCCUAUGGUCCUAAUAGCUUUUUUUAAAAUUUCAGAUAUUAUCAUUUUACUAGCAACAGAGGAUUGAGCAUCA: 1.74 ratio

Block 4
Target: RNA binding protein fox-1 homolog 2, RRM domain, GST-SBP tag (RBFOX2, Homo sapiens, UniProt O43251-10, residues 100-194)
Technique: RNA Bind-n-Seq
Form: RNA
Sample: in vitro
Tested at: 365 nM
Setting: natural RNA segment, single round, ends assumed
Baseline: no-protein control
Direction: higher = stronger binding
Quantity: RBNS enrichment (R)
Target sequence (chain): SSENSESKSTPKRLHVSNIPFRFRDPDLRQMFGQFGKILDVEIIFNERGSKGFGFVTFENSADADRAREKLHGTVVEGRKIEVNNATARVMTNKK
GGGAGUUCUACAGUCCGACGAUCUUCUUUCCUGCUAUGCUGUGAGCUACUGAGCUUUACAGCCAUGAAAACUAUUGUAGGCUCCCUCGCCAAACCAUGGCUUUCCCUCAGCAUCAAGACCUGUGCCAAGGAGAUGGAAUUCUCGGGUGCCAA: 1.76
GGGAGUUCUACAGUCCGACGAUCACCAGAGCCUCCCCGCUGCUCCUCCUGCUUCACGGACUCAUUCUCUCUCCACCUCCACCCCACCAGAGAGUAGCGAUUGCUUUUUAGUCUAUUUUGUUGUCAAUACAAUUUGGAAUUCUCGGGUGCCAA: 0.594
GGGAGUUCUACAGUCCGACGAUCUUGUAUAUGUUUCCUGGAUGUCCUUGACGGGUACAAACACUGAUGUGGUGGUAGCCAUCCCACAUGGUGUCCAGAGGAAAGCUACGCGCAUUUAUACUGUCUGUUCUGUAUGGAAUUCUCGGGUGCCAA: 0.484
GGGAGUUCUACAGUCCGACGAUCAUGACCAAUGGGCCAUCGGACUGGAGACCCCUGAUUGUGGGAAGGGUUGCCAGGGAUAAAGAGCUUCCUCACUGGAUGGGACCCGCCUUUCUGUGUUGUGUUCUGCCCUGUGGAAUUCUCGGGUGCCAA: 0.897
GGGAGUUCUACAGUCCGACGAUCACGUGCAGUCCCUGGGCACGGCGGGCCCUGCCAUGUGCUGGUAACGCAUGCCUGGGCCCUGCUGGGCUCUCCCACUCCAGGCGGACCCUGGGGGCCAGUGAAGGAAGCUCUGGAAUUCUCGGGUGCCAA: 0.19
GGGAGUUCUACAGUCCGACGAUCAAGAUGUCAAAUACAAUGCAGCAUUUUCAUCUUGUUCUUUCAAAGUUAAUAGUCUAUUAUUUUAUGUCUAUUGAUUUUCAUUGUUAAUGUGAAAUGGUUAUUUAUACUUAUGGAAUUCUCGGGUGCCAA: 0.646
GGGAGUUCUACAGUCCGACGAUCGUGUGUGUGGAAAGGGUAGGGCUGCACCCUGUGGAAGAGGGUUCAGGGAGCUCUGAGGACCUGGCUCGUGCUAGAUGCUCAGUCAGUAGUGUGUUUUAGCAGCAGCCGGAUGGAAUUCUCGGGUGCCAA: 1.12
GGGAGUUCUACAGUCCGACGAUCUUGUAAACCAUUUACUGUCUGGGCAAUAGUGACUCCGUUUAAUAAAAGCUUCCGUAGUGCAUUGGUAUGGAUUAAAUGCAUAAAAUAUUCUUAGACUCGAUGCUGUAUAAUGGAAUUCUCGGGUGCCAA: 1.82

A few entries again (block 4):
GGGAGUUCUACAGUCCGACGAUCACGUGCAGUCCCUGGGCACGGCGGGCCCUGCCAUGUGCUGGUAACGCAUGCCUGGGCCCUGCUGGGCUCUCCCACUCCAGGCGGACCCUGGGGGCCAGUGAAGGAAGCUCUGGAAUUCUCGGGUGCCAA: 0.19
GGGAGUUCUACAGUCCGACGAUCUUGUAAACCAUUUACUGUCUGGGCAAUAGUGACUCCGUUUAAUAAAAGCUUCCGUAGUGCAUUGGUAUGGAUUAAAUGCAUAAAAUAUUCUUAGACUCGAUGCUGUAUAAUGGAAUUCUCGGGUGCCAA: 1.82
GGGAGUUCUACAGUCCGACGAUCUUCUUUCCUGCUAUGCUGUGAGCUACUGAGCUUUACAGCCAUGAAAACUAUUGUAGGCUCCCUCGCCAAACCAUGGCUUUCCCUCAGCAUCAAGACCUGUGCCAAGGAGAUGGAAUUCUCGGGUGCCAA: 1.76
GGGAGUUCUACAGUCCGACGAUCACCAGAGCCUCCCCGCUGCUCCUCCUGCUUCACGGACUCAUUCUCUCUCCACCUCCACCCCACCAGAGAGUAGCGAUUGCUUUUUAGUCUAUUUUGUUGUCAAUACAAUUUGGAAUUCUCGGGUGCCAA: 0.594
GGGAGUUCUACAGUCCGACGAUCGUGUGUGUGGAAAGGGUAGGGCUGCACCCUGUGGAAGAGGGUUCAGGGAGCUCUGAGGACCUGGCUCGUGCUAGAUGCUCAGUCAGUAGUGUGUUUUAGCAGCAGCCGGAUGGAAUUCUCGGGUGCCAA: 1.12
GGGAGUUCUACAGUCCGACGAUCUUGUAUAUGUUUCCUGGAUGUCCUUGACGGGUACAAACACUGAUGUGGUGGUAGCCAUCCCACAUGGUGUCCAGAGGAAAGCUACGCGCAUUUAUACUGUCUGUUCUGUAUGGAAUUCUCGGGUGCCAA: 0.484
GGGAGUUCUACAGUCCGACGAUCAUGACCAAUGGGCCAUCGGACUGGAGACCCCUGAUUGUGGGAAGGGUUGCCAGGGAUAAAGAGCUUCCUCACUGGAUGGGACCCGCCUUUCUGUGUUGUGUUCUGCCCUGUGGAAUUCUCGGGUGCCAA: 0.897
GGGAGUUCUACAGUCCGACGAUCAAGAUGUCAAAUACAAUGCAGCAUUUUCAUCUUGUUCUUUCAAAGUUAAUAGUCUAUUAUUUUAUGUCUAUUGAUUUUCAUUGUUAAUGUGAAAUGGUUAUUUAUACUUAUGGAAUUCUCGGGUGCCAA: 0.646
